Assay results of several laboratories.
Compare with care: the assays were run in different laboratories. Several values in a cell are separate wells, animals, samples, runs or records. ± marks the error that the study gave.
CDK4: Cyclin-dependent kinase 4 (CDK4, Homo sapiens, UniProt P11802)
UniProt P11802, sequence (whole entry, looked up): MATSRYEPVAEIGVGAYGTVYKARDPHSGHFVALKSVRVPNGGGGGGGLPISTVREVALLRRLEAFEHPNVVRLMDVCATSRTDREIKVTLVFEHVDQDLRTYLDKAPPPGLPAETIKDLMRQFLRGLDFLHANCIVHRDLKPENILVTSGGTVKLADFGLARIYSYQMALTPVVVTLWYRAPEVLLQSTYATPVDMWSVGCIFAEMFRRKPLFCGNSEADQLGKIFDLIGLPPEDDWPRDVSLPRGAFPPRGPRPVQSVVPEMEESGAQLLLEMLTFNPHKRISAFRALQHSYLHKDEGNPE
VKORC1: Vitamin K epoxide reductase complex subunit 1 (VKORC1, Homo sapiens, UniProt Q9BQB6)
UniProt Q9BQB6, sequence (whole entry, looked up): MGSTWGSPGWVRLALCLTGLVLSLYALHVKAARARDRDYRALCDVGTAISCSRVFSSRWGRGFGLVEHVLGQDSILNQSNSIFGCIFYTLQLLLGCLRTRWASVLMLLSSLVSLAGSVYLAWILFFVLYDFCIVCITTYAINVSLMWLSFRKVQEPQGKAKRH
DDR2: Discoidin domain-containing receptor 2 (DDR2, Homo sapiens, UniProt Q16832)
UniProt Q16832, sequence (whole entry, looked up): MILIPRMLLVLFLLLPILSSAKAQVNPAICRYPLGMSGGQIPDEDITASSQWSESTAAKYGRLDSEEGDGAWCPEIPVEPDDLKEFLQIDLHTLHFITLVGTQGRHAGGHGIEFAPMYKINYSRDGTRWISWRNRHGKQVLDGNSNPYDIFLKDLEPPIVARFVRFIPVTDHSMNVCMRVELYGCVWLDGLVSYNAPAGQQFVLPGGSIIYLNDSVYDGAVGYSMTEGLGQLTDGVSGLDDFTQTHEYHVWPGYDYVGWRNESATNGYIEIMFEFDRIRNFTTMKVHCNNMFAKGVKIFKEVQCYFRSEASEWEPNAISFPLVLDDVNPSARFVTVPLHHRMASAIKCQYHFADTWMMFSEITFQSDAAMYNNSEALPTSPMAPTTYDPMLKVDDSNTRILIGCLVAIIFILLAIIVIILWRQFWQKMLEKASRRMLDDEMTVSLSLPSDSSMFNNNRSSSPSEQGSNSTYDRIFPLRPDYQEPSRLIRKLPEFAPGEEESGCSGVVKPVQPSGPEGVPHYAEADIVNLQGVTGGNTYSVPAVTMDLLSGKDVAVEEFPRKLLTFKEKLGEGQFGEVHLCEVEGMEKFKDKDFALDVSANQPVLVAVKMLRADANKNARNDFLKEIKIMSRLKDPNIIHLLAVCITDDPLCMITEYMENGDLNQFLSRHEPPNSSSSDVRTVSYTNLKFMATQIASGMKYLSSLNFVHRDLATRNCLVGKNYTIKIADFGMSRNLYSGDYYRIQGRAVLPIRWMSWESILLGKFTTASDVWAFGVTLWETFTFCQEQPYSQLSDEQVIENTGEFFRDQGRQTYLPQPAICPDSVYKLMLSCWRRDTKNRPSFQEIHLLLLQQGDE
MAOA: Amine oxidase [flavin-containing] A (MAOA, Homo sapiens, UniProt P21397)
UniProt P21397, sequence (whole entry, looked up): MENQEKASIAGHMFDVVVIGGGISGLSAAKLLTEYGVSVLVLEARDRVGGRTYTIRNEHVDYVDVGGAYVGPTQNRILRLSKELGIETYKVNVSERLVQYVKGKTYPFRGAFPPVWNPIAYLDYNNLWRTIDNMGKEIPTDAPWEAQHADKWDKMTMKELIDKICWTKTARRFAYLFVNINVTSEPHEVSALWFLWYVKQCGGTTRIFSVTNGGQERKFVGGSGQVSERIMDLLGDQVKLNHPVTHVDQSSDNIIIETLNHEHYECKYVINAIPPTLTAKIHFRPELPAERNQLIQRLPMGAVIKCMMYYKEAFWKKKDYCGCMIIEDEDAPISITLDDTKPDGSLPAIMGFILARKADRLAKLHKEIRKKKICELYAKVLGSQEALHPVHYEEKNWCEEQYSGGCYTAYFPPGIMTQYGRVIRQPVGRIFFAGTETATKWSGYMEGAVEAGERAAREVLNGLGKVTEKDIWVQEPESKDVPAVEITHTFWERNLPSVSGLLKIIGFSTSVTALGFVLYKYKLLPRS
Gria2: Glutamate receptor 2 (Gria2, Rattus norvegicus, UniProt P19491)
UniProt P19491, sequence (whole entry, looked up): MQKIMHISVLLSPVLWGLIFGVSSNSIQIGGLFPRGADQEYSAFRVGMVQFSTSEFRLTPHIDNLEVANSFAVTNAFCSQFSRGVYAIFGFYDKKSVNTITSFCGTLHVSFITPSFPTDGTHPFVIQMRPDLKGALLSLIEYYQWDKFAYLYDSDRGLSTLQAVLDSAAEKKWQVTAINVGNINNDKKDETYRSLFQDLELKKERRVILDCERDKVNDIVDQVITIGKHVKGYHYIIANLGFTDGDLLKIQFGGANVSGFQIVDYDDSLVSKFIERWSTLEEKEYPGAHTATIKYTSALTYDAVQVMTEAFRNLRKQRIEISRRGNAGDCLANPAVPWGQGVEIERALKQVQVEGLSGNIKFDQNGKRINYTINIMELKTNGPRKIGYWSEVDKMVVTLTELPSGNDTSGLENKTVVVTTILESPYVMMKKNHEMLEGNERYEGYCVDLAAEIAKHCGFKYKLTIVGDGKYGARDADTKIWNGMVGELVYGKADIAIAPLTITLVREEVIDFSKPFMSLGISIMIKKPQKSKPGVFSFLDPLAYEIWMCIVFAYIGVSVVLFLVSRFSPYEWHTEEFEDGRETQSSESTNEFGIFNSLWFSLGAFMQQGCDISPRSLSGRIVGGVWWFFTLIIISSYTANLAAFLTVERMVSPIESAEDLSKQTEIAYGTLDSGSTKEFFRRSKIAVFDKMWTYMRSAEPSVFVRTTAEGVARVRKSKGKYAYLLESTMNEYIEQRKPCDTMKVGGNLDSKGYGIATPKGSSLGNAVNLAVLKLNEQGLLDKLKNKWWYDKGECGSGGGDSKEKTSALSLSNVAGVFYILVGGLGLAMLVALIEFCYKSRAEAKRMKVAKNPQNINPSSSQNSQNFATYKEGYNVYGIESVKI
UniProt P23743, sequence (whole entry, looked up): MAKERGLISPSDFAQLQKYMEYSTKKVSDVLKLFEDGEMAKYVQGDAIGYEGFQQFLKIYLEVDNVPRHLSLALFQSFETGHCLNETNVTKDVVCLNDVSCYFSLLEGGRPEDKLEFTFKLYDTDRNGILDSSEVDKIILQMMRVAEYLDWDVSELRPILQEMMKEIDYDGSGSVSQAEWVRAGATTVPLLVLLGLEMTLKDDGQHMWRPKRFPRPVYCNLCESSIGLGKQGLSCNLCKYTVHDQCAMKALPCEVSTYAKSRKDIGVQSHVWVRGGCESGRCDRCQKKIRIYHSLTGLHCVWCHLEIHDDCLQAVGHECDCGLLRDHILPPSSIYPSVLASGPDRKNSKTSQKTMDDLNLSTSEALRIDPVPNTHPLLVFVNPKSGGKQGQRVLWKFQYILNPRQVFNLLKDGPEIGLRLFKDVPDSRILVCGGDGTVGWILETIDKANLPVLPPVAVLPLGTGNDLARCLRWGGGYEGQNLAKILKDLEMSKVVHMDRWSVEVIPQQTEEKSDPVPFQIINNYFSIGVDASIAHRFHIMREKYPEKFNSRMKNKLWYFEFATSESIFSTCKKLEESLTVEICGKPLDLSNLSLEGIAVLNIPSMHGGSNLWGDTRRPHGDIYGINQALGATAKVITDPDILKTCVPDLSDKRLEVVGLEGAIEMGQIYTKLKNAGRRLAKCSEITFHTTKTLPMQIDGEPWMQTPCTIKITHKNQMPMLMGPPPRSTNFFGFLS
UniProt P07550, sequence (whole entry, unmodified, looked up): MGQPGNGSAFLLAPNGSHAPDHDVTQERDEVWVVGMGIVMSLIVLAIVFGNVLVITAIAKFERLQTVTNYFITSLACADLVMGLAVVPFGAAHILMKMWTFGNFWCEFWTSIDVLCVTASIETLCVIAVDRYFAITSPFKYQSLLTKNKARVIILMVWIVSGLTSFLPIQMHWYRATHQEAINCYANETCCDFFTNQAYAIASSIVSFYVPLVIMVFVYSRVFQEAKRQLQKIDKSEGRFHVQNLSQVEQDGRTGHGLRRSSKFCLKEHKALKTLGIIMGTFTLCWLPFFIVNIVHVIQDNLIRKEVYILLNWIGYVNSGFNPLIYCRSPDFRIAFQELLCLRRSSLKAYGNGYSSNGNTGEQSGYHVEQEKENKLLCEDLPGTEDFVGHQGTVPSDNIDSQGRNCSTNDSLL
UniProt Q01727, sequence (whole entry, looked up): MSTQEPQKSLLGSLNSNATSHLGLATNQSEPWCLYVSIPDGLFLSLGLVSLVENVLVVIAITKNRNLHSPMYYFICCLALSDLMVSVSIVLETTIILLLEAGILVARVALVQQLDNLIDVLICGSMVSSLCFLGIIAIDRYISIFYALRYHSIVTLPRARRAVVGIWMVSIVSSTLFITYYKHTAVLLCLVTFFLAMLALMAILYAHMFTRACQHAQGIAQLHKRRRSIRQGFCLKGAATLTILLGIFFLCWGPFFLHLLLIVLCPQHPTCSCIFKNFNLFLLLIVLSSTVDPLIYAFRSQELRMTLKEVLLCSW
UniProt P21728, sequence (whole entry, looked up): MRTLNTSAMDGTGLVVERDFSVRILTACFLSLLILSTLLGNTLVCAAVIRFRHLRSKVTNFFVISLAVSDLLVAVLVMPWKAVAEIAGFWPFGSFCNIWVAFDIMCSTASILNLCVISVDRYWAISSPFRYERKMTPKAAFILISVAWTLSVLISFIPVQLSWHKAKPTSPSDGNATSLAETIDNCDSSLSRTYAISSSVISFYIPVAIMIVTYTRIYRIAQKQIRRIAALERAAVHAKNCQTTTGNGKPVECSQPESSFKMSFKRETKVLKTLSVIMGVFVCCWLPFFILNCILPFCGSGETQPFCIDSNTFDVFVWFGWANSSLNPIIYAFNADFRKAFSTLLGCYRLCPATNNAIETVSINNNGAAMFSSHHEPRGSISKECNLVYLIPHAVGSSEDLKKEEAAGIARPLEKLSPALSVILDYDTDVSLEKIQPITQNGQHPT
UniProt Q9NXA8, sequence (whole entry, looked up): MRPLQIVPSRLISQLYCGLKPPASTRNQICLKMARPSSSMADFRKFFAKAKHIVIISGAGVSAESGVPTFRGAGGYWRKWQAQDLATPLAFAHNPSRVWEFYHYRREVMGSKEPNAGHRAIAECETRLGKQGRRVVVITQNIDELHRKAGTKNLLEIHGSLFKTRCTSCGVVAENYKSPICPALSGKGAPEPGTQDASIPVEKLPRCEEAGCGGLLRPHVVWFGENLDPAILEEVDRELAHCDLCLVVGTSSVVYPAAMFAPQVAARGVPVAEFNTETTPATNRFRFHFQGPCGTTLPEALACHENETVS

COC(=O)CCCCCCCNC(=O)c1ccc(Nc2ncc(F)c(-c3cc(F)c4nc(C)n(C(C)C)c4c3)n2)cc1 — IC50 (CDK4): 6.2 nM
Cc1cccc(C(=O)N2CCCC(Cn3nnc4c(O)nc(C)nc43)C2)c1 (stereo not shown) — IC50 (VKORC1; carboxylation, inhibitor, ELISA; HEK293 stably expressing; 24 h, with: vitamin K epoxide 5 µM): > 100000 nM
O=C(CN1CN(c2ccccc2)C2(CCN(C(=O)c3ccc4[nH]ncc4c3)CC2)C1=O)Nc1ccccn1 — IC50 (DDR2; ligand displacement): 282 nM
COc1cc(C(=O)/C=C/c2ccc(C(C)C)cc2)cc(OC)c1OC — IC50 (MAOA; enzyme activity, inhibitor): > 40000 nM
COC(=O)Cc1cc2c(cc1C(=O)c1ccccc1)OCO2 — IC50 (Gria2; ion current, patch clamp): 5910 nM
O=C(CN1CN(c2ccccc2)C2(CCN(C(=O)c3ccc4[nH]ncc4c3)CC2)C1=O)N1CCOC(C(F)(F)F)C1 (stereo not shown) — IC50 (DDR2; ligand displacement): 679 nM
CCOc1cc(CN2CC3(CC(N4CCC(C(=O)O)CC4)=NO3)C2)cc(OCC)c1-c1ccc(F)cc1 — IC50 (SSTR5 (Homo sapiens, UniProt P35346, M116A); cAMP level, antagonist, GloSensor; AD293; M116A mutant, bandwidth 3.29, with: CST17 EC80 and forskolin): 2570 nM
O=C(O)CCNC(=S)NCCCC[C@H](NS(=O)(=O)c1cccc(F)c1)C(=O)N[C@@H](Cc1c[nH]c2ccccc12)C(=O)NC1CCC1 — IC50 (SIRT5 (Homo sapiens, UniProt Q9NXA8); inhibitor, fluorogenic; 0 h preincubation, non-tagged enzyme 150 nM, with: NAD+ 500 µM): 74 ± 5 nM
Cc1ncsc1-c1ccc(C(C)NC(=O)C2CC(O)CN2C(=O)C(NC(=O)CCCCCCCCCCN2CCCC(Nc3ncc(Cl)c(Nc4ccccc4S(=O)(=O)C(C)C)n3)C2)C(C)(C)C)cc1 (stereo not shown) — log2 fold change (22Rv1; RNA-seq, item: LCMT2 mRNA; concentration not given; reference: DMSO): -1.89
O=C(NCC(F)(F)c1ccc(Cl)cc1Cl)c1cc(Cl)nnc1Oc1cccc(C2CC2)c1 — IC50 (serine palmitoyltransferase (Botrytis cinerea, UniProt A0A384JAG3+A0A384JQT2)): 4 ± 1000 nM
O=C1NCc2nc3c(ccc4ccccc43)cc21 — IC50 (DYRK1A (Homo sapiens, UniProt Q13627); enzyme activity, inhibitor, ADP detection): 300 nM
C=CC(=O)N1Cc2nc(-c3cc(-c4cc(Cl)cnc4Cl)c(F)cc3F)n(-c3ccncn3)c2C1 — IC50 (ERBB2 (Homo sapiens, UniProt P04626); HER2 phosphorylation, item: pHER2 Y1221/1222; BT-474 (HER2 wild type); 2 h): 75 nM
Cc1nc2c(F)cc(-c3nc(Nc4cccc(NC(=O)CCCCCCC(=O)NO)c4)ncc3F)cc2n1C(C)C — IC50 (CDK4): 2.3 nM
NC(=O)c1cccc(NC(=O)c2cc(-c3ccccc3)n(-c3ccc(Br)cc3)n2)c1 — IC50 (Genome polyprotein, NS2B-NS3 protease (dengue virus type 2, UniProt P29990); enzyme activity; with: AMC substrate 50 µM): 14000 nM
Cc1cc(O)c2c(c1)C(=O)c1cc(O)c(S(=O)(=O)O)c(O)c1C2=O — IC50 (MAOA; enzyme activity, inhibitor): > 100000 nM
CCCC[C@H](NC(=O)CNC(=O)CNC(C)=O)C(=O)N[C@@H](CS)C(=O)N[C@@H](CS)C(=O)N[C@@H](CCC(=O)O)C(=O)N[C@@H](Cc1c[nH]cn1)C(=O)N[C@H](Cc1ccccc1)C(=O)N[C@@H](CCCNC(=N)N)C(=O)N[C@@H](Cc1c[nH]c2ccccc12)C(=O)N[C@@H](CS)C(N)=O — IC50 (Mc1r (Mus musculus, UniProt Q01727); ligand displacement, radioligand): 27.1 nM
C[C@@H]1CN(c2cc(=O)n(C)c3ccc(C#N)nc23)[C@@H](C)CN1Cc1ccc(S(=O)(=O)n2cnc(C3CC3)n2)cc1 — IC50 (DGKA (Homo sapiens, UniProt P23743); inhibitor, ADP-Glo; with: DAG micelles): 12 nM and ~12 nM
Cc1nn(-c2cccc(N)c2)c(=O)c2cnc(Nc3ccc(N4CCNCC4)cc3)nc12 — IC50 (DAPK1 (Homo sapiens, UniProt P53355); enzyme activity, inhibitor): 2810 nM
CN[C@H]1CCN(C(=O)c2c(C)cc(C(F)(F)F)nc2-c2ccnc3cc(CN4C(=O)C5C(C4=O)C5(C)C)sc23)C1 (stereo partly shown) — IC50 (USP7 (Homo sapiens, UniProt Q93009); enzyme activity, inhibitor): 22 nM
CCCCCCN(O)C(=O)CCCCC[C@@H]1NC(=O)[C@H](CCSC)NC(=O)CCSCc2cccc(n2)CSCCNC(=O)[C@H](Cc2ccc(Cl)cc2Cl)NC1=O — IC50 (HDAC11 (Homo sapiens, UniProt Q96DB2); enzyme activity, inhibitor, fluorescence): 210 nM
CC(C)(COP(=O)(O)OP(=O)(O)OC[C@H]1O[C@@H](n2cnc3c(N)ncnc32)[C@H](O)[C@@H]1OP(=O)(O)O)[C@@H](O)C(=O)NCCC(=O)NCCSCC(=O)N[C@@H](CO)C(=O)NCC(=O)N[C@@H](CCCNC(=N)N)C(=O)NCC(=O)N[C@@H](CCCCN)C(=O)NCCCC[C@H](NC(=O)CC[C@@H]1NC(=O)[C@@H](CCCNC(=N)N)NC(=O)[C@H](CCCNC(=N)N)NC(=O)[C@@H](CCCNC(=N)N)NC(=O)[C@H](CCCNC(=N)N)NC(=O)[C@H](Cc2csc3ccccc23)NC(=O)[C@@H](Cc2ccccc2)NC(=O)[C@H](Cc2ccccc2)NC1=O)C(N)=O — IC50 (NAA40 (Homo sapiens, UniProt Q86UY6); enzyme activity, inhibitor, fluorescence): 78 nM
O=C(CN1CN(c2ccccc2)C2(CCN(C(=O)c3ccc4[nH]ncc4c3)CC2)C1=O)Nc1ccncc1 — IC50 (DDR2; ligand displacement): 54700 nM
Cc1nc2c(F)cc(-c3nc(Nc4ccc(C(=O)NCCCC(=O)NO)cc4)ncc3F)cc2n1C(C)C — IC50 (CDK4): 11 nM
CCn1nc(Cl)c2c1-c1cnc(N)c(c1)O[C@H](C)c1cc(F)ccc1-c1nn(C)cc1C2 — IC50 (EPHB1 (Homo sapiens, UniProt P54762); enzyme activity, inhibitor, radiometric): 485 nM
CN1CCc2cc(Br)c(O)cc2C(c2ccc(NC(=O)CCOCCOCCOCCN=[N+]=[N-])cc2)C1 (stereo not shown) — IC50 (DRD1 (Homo sapiens, UniProt P21728); cell-based): 135 nM
Cc1nc2c(F)cc(-c3nc(Nc4ccc(CNC(=O)CCCCCC(=O)NO)cc4)ncc3F)cc2n1C(C)C — IC50 (CDK4): 1.1 nM
Oc1cc(NCCCNCc2cc(Cl)cc(Cl)c2)nc2ccccc12 — IC50 (MARS2 (Homo sapiens, UniProt Q96GW9); enzyme activity, inhibitor): < 13 nM
COC1CN([C@H]2CC[C@H]([C@@]3(C)Oc4c(Cl)cc(C(=O)NCc5c(SC)cc(C)[nH]c5=O)c(C)c4O3)CC2)C1 — log2 fold change (RNA-seq, item: CACHD1; human, whole blood; dose not given, 24 h; reference: pretreatment baseline): 2.46
CC(C)C[C@H](NC(=O)[C@@H](CCCCNC(=O)CCCCCNC(=O)[C@@H](Cc1ccccc1)NC(=O)CN1CCN(CC(=O)O)CCN(CC(=O)O)CCN(CC(=O)O)CC1)NC(=O)[C@H](Cc1ccc(O)cc1)NC(=O)[C@H](CO)NC(=O)[C@H](Cc1c[nH]c2ccccc12)NC(=O)[C@H](Cc1c[nH]cn1)NC(=O)[C@@H]1CCC(=O)N1)C(=O)N[C@@H](CCCNC(=N)N)C(=O)N1CCC[C@H]1C(=O)NCC(N)=O — IC50 (GNRHR (Homo sapiens, UniProt P30968); ligand displacement, radioligand; pH 7.4, cell membranes): 16.3 nM
COC(=O)Cc1cc2c(cc1C(=O)c1cccc(I)c1)OCO2 — IC50 (Gria2; ion current, patch clamp): 5630 nM
O=C(Cn1ncc2cccn2c1=O)NC(c1ccccc1)c1ccccc1 — IC50 (VKORC1; carboxylation, inhibitor, cell-based): 38900 nM
Fc1ccc(Nc2nc(NC3CCCCC3)c3cc(C(F)(F)F)ccc3n2)cc1F — IC50 (ADRB2 (Homo sapiens, UniProt P07550, V152G); β-arrestin2 recruitment, antagonist, BRET; HEK293; mutant V152G, with: isoprenaline 1 µM): 794 nM
Cc1nc2c(F)cc(-c3nc(Nc4ccc(NC(=O)CCCCCCC(=O)NO)nc4)ncc3F)cc2n1C(C)C — IC50 (CDK4): 2.1 nM
CCN(CC)CC(=O)Nc1cccc(-n2cc(-c3ccc4ccc(-c5cn(-c6cccc(NC(=O)CN(CC)CC)c6)nn5)cc4c3)nn2)c1 — IC50 (FGFR4 (Homo sapiens, UniProt P22455); enzyme activity, inhibitor): > 10000 nM

Excerpt of the above:
Cc1nc2c(F)cc(-c3nc(Nc4ccc(CNC(=O)CCCCCC(=O)NO)cc4)ncc3F)cc2n1C(C)C — IC50 (CDK4): 1.1 nM
Oc1cc(NCCCNCc2cc(Cl)cc(Cl)c2)nc2ccccc12 — IC50 (MARS2 (Homo sapiens, UniProt Q96GW9); enzyme activity, inhibitor): < 13 nM
COC1CN([C@H]2CC[C@H]([C@@]3(C)Oc4c(Cl)cc(C(=O)NCc5c(SC)cc(C)[nH]c5=O)c(C)c4O3)CC2)C1 — log2 fold change (RNA-seq, item: CACHD1; human, whole blood; dose not given, 24 h; reference: pretreatment baseline): 2.46
CC(C)C[C@H](NC(=O)[C@@H](CCCCNC(=O)CCCCCNC(=O)[C@@H](Cc1ccccc1)NC(=O)CN1CCN(CC(=O)O)CCN(CC(=O)O)CCN(CC(=O)O)CC1)NC(=O)[C@H](Cc1ccc(O)cc1)NC(=O)[C@H](CO)NC(=O)[C@H](Cc1c[nH]c2ccccc12)NC(=O)[C@H](Cc1c[nH]cn1)NC(=O)[C@@H]1CCC(=O)N1)C(=O)N[C@@H](CCCNC(=N)N)C(=O)N1CCC[C@H]1C(=O)NCC(N)=O — IC50 (GNRHR (Homo sapiens, UniProt P30968); ligand displacement, radioligand; pH 7.4, cell membranes): 16.3 nM
COC(=O)Cc1cc2c(cc1C(=O)c1cccc(I)c1)OCO2 — IC50 (Gria2; ion current, patch clamp): 5630 nM
